Experimental data pooled from the literature.
Values joined by “and” are separate records of one study, mostly repeats; a detail may differ. ± gives the spread as reported.
USP5: Ubiquitin carboxyl-terminal hydrolase 5 (USP5, Homo sapiens, UniProt P45974)
PTGS2: Prostaglandin G/H synthase 2 (PTGS2, Homo sapiens, UniProt P35354)

C[Si](C)(C)C[C@@H](CN)CC(=O)O — inhibition (alpha2 adrenergic receptor, rat; binding, radioligand binding; 75 µM, together with: [3H]rauwolscine): 3%
Oc1nc2ncc(Br)cc2[nH]1 — inhibition (USP5; enzyme activity, inhibitor; 17 µM): 90%
O=C1c2sc(-c3ccc(N4CCC(CO)CC4)nc3F)nc2CCN1c1cccnc1 — inhibition (CYSLTR1 (Homo sapiens, UniProt Q9Y271); ligand displacement, radioligand; 1 µM): 3%
COc1cccc(-c2cc(F)c(NC(=O)Nc3sc(C)nc3C(=O)O)c(F)c2)c1 — inhibition (DHODH (Homo sapiens, UniProt Q02127); enzyme activity, DCIP colorimetric; 0.50 µM): 80.7% and 80.8% and 82.8%
Cc1nn(-c2cccc(N)c2)c(=O)c2cnc(Nc3ccc(N4CCNCC4)cc3)nc12 — IC50 (PKN1 (Homo sapiens, UniProt Q16512); enzyme activity, inhibitor): > 10000 nM
C=C1CC[C@H](OCCCNC(=O)CCOCCOCCOCCOCCOCCOCCOCCOCCOCCOCCOCCOCCOCCOCCOCCOCCOCCOCCOCCOCCOCCOCCOCCOCCOCCOCCOCCOCCOCCOCCOCCOCCOCCOCCOCCOCCNC(=O)CCN2C(=O)CC(SC[C@H](NC(=O)[C@H](Cc3ccccc3)NC(=O)[C@H](CC(N)=O)NC(=O)[C@H](Cc3c[nH]cn3)NC(=O)[C@@H](NC(=O)[C@H](CC(=O)O)NC(=O)[C@H](CCC(N)=O)NC(=O)[C@H](CC(C)C)NC(=O)[C@H](CCCCN)NC(=O)[C@H](CCCCN)NC(=O)[C@H](CCCNC(=N)N)NC(=O)[C@H](CC(C)C)NC(=O)[C@H](Cc3c[nH]c4ccccc34)NC(=O)[C@H](CCC(=O)O)NC(=O)[C@@H](NC(=O)[C@H](CCCNC(=N)N)NC(=O)[C@H](CCC(=O)O)NC(=O)[C@H](CCSC)NC(=O)[C@H](CO)NC(=O)[C@H](CC(N)=O)NC(=O)[C@H](CC(C)C)NC(=O)[C@H](Cc3c[nH]cn3)NC(=O)[C@H](CCCCN)NC(=O)CNC(=O)[C@H](CC(C)C)NC(=O)[C@H](CC(N)=O)NC(=O)[C@H](Cc3c[nH]cn3)NC(=O)[C@H](CCSC)NC(=O)[C@H](CC(C)C)NC(=O)[C@H](CCC(N)=O)NC(=O)[C@@H](NC(=O)[C@H](CCC(=O)O)NC(=O)[C@H](CO)NC(=O)[C@@H](NC(=O)[C@@H](N)CO)C(C)C)[C@@H](C)CC)C(C)C)C(C)C)C(=O)O)C2=O)C/C1=C/C=C1\CCC[C@]2(C)[C@@H]([C@H](C)CCCC(C)(C)O)CC[C@@H]12 (stereo partly drawn) — half-life (male Sprague-Dawley rat, plasma; subcutaneous, 300 µg/kg, single dose): 553 min
CCOC(=O)c1c(C)oc2c1C(=O)C(=NO)c1ccccc1-2 — inhibition (USP5; enzyme activity, inhibitor; 17 µM): 78%
C=C(NC(=O)c1csc(-c2nc3c(cc2O)-c2nc(cs2)C(=O)NC(C(C)O)C(=O)NC(=C(C)OC)c2nc(cs2)C(=O)NC2c4nc(cs4)C(=O)NC(COC(=O)c4c5c6c(cccc6n4O)COC(=O)C(OC4CC(C)(O)C(N(C)C)C(C)O4)C2OC5)c2nc-3cs2)n1)C(N)=O (stereo not drawn) — volume of distribution (Sprague-Dawley rat, female, plasma; intravenous infusion, 6 mg/kg single dose): 19900 mL/kg
CN(C)c1c(C(C#N)=C(C#N)C#N)c2ccccc2n1C — inhibition (USP5; enzyme activity, inhibitor; 17 µM): 45%
Cc1ncsc1-c1ccc(C(C)NC(=O)C2CC(O)CN2C(=O)C(NC(=O)CCCCCCCCCCN2CCCC(Nc3ncc(Cl)c(Nc4ccccc4S(=O)(=O)C(C)C)n3)C2)C(C)(C)C)cc1 (stereo not drawn) — log2 fold change (22Rv1; RNA-seq, item: ZNF557 mRNA; concentration not given; reference: DMSO): -1.98
Cc1cc(C(=O)NN=C2CC(=O)c3ccccc32)c(C)o1 — inhibition (USP5; enzyme activity, inhibitor; 17 µM): 23%
Cc1ccc2c(c1)sc(-c1ccc(N(C)C)cc1)[n+]2C — inhibition (Coelenterazine h 2-monooxygenase (Renilla reniformis, UniProt P27652); luciferase activity, inhibitor, luminescence counter-screen; concentration not given, test 2): 90% and 103%
O=C(c1ccc(C2CCCCC2)cc1)N1CCC(F)CC1 — hepatic clearance (hepatocyte stability; cryopreserved rat hepatocytes; 1 µM): 46 mL/min/kg
CN(C)C/C=C/C(=O)Nc1ccc2nc(NCCCCCN(C)C)nc(NCCCCCCN(C)C)c2c1 — inhibition (DNA (cytosine-5)-methyltransferase 3A, with DNMT3L (DNMT3A, Homo sapiens, UniProt Q9Y6K1); enzyme activity; 50 µM): 6%
Nc1ncc(-c2cc(-c3cnn(CC(F)(F)F)c3)ncc2F)nc1C(=O)NC1CNCC(F)C1 (stereo not drawn) — remaining binding (PRKD2; KINOMEscan; 1 µM; reference: DMSO control): 77%
O=C1c2sc(-c3ccc(N4CCC(F)C4)nc3F)nc2CCN1c1cccnc1 (stereo not drawn) — inhibition (TAR DNA-binding protein 43, aggregated (TARDBP, Homo sapiens, UniProt Q13148); radioligand binding; homogenate, FTLD-TDP, type A; 16 nM, together with: [3H]ACI-19626): 2.57% and 9.36%
O=C(Nc1ccc(N2CCOCC2)c2nonc12)c1cc(-c2cccnc2)nc2ccc(Cl)cc12 — inhibition (USP5; enzyme activity, inhibitor; 17 µM): 93%
CNS(=O)(=O)Nc1nccc(Cc2c(C)c3ccc(Oc4ncccc4F)cc3oc2=O)c1F — IC50 (SJSA-1; cell viability; 7 days): 13.5 nM
C/C=C(/C)C(=O)O[C@@H]1C=C(C)CC[C@]2(O)[C@@H](C(C)C)CC(=O)[C@]12C — inhibition (PTGS2; enzyme activity, inhibitor; 0.49 µg/mL): 0%
CC(=O)C12NC(C)(C)CC1(C)C(=O)C1=C2c2c(c3c4n2C(C)(C)CC2=C4C4(CC(C)(C)NC(C)(C4)C2=O)CC3(C)C)C(=O)C(C)(C)N1 (single isomer, unassigned; (-)) — inhibition (KCNQ2 (Homo sapiens, UniProt O43526); potassium current, whole-cell patch clamp; HEK293T; 40 µM): 1 ± 0.04%
CO[C@@H]1OC[C@@H](O)[C@H](O)[C@H]1O — inhibition (PTGS2; enzyme activity, inhibitor; 31.25 µg/mL): 93.2%
C/C=C/C(=O)Nc1ccc2nc(NCCCCCN(C)C)nc(NCCCCCCN(C)C)c2c1 — inhibition (SUV39H2 (Homo sapiens, UniProt Q9H5I1); enzyme activity, inhibitor, radiometric; 10 µM): -4%
CC=C(C)C(=O)OC1CC2C(C=C(C)C3C(OC(C)=O)CC(=O)C13C)OC(=O)C2C (stereo not drawn) — inhibition (PTGS2; enzyme activity, inhibitor; 7.81 µg/mL): 0%
O=C(NCCOc1ccc(F)cc1)c1ccc([C@H]2[C@@H](F)[C@@H](F)C[C@@H](F)[C@H]2F)cc1 — hepatic clearance (hepatocyte stability; cryopreserved mouse hepatocytes; 1 µM): 69 mL/min/kg

Excerpt of the above:
CCOC(=O)c1c(C)oc2c1C(=O)C(=NO)c1ccccc1-2 — inhibition (USP5; enzyme activity, inhibitor; 17 µM): 78%
Cc1ccc2c(c1)sc(-c1ccc(N(C)C)cc1)[n+]2C — inhibition (Coelenterazine h 2-monooxygenase (Renilla reniformis, UniProt P27652); luciferase activity, inhibitor, luminescence counter-screen; concentration not given, test 2): 90% and 103%
COc1cccc(-c2cc(F)c(NC(=O)Nc3sc(C)nc3C(=O)O)c(F)c2)c1 — inhibition (DHODH (Homo sapiens, UniProt Q02127); enzyme activity, DCIP colorimetric; 0.50 µM): 80.7% and 80.8% and 82.8%
